Measured values of several laboratories.
Parts stem from different laboratories: compare values within a part only.
UniProt P08069, sequence (whole entry, looked up): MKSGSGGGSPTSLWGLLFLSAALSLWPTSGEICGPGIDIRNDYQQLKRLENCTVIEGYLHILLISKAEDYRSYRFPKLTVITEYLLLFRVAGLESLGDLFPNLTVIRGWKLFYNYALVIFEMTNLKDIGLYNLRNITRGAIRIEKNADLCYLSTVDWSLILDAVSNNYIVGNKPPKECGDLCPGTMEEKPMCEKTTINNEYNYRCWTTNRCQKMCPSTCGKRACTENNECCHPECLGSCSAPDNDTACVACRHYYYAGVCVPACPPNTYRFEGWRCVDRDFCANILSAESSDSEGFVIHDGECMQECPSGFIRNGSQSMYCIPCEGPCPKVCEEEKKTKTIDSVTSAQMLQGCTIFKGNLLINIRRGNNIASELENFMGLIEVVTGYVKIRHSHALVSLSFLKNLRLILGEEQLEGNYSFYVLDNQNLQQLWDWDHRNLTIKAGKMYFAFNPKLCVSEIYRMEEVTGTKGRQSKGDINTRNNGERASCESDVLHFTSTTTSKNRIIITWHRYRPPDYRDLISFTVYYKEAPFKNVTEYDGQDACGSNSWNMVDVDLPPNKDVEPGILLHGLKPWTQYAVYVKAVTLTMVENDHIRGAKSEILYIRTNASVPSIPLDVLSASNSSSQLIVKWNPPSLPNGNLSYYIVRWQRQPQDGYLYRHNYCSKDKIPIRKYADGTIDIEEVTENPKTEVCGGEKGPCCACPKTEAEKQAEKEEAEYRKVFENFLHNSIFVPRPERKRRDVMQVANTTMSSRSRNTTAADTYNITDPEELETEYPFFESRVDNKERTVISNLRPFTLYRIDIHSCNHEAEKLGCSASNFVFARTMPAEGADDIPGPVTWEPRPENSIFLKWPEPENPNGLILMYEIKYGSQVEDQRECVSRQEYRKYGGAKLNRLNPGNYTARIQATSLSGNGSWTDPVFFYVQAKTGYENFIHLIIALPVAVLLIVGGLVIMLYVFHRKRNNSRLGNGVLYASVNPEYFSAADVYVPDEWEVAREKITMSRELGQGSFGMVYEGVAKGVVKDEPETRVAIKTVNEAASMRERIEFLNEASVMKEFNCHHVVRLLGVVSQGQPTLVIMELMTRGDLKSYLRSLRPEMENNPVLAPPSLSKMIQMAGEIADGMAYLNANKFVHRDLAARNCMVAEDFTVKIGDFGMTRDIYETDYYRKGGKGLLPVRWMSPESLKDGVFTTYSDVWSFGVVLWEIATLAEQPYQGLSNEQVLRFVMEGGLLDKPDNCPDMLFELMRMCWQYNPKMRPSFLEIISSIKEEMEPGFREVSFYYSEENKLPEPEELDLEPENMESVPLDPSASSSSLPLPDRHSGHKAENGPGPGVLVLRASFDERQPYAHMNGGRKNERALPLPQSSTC
UniProt Q06418, sequence (whole entry, looked up): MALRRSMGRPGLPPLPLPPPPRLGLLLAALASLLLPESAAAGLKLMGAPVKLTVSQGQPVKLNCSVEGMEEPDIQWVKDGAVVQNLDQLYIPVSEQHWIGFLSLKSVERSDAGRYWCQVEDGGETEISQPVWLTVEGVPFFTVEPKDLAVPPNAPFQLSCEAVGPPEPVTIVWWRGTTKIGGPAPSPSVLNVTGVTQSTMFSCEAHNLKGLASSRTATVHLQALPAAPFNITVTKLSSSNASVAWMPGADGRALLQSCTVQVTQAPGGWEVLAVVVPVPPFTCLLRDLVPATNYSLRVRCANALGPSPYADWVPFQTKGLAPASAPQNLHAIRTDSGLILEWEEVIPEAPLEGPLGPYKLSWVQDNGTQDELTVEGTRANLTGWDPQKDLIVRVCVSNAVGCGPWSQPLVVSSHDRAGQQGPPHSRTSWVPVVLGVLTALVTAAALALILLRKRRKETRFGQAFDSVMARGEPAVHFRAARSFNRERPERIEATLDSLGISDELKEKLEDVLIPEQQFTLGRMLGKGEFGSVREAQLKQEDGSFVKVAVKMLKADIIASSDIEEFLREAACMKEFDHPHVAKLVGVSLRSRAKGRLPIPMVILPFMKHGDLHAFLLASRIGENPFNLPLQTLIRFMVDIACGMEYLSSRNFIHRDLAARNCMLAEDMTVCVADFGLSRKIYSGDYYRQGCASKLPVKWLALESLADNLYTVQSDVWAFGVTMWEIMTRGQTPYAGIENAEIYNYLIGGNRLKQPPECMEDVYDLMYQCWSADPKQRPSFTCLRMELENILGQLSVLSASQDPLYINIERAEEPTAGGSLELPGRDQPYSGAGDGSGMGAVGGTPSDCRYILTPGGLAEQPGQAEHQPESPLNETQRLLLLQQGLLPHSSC
UniProt Q05655, sequence (whole entry, looked up): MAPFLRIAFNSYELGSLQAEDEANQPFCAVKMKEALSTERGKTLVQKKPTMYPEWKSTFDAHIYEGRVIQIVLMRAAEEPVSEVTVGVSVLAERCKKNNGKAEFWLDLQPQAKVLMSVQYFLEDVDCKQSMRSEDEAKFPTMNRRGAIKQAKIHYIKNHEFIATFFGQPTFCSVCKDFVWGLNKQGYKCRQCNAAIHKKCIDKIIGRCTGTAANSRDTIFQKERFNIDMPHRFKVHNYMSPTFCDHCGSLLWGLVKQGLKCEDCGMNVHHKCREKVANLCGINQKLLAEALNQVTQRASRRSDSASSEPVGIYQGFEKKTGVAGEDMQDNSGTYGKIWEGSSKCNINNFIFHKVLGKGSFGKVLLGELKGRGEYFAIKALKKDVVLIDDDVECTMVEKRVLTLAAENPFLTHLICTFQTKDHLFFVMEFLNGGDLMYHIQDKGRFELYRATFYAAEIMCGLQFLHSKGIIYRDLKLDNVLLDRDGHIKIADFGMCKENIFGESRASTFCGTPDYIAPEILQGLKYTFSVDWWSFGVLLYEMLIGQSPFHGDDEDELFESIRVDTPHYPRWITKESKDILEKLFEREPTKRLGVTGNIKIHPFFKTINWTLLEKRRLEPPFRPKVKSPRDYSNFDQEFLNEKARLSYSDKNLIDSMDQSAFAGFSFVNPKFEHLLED
UniProt Q99683, sequence (whole entry, looked up): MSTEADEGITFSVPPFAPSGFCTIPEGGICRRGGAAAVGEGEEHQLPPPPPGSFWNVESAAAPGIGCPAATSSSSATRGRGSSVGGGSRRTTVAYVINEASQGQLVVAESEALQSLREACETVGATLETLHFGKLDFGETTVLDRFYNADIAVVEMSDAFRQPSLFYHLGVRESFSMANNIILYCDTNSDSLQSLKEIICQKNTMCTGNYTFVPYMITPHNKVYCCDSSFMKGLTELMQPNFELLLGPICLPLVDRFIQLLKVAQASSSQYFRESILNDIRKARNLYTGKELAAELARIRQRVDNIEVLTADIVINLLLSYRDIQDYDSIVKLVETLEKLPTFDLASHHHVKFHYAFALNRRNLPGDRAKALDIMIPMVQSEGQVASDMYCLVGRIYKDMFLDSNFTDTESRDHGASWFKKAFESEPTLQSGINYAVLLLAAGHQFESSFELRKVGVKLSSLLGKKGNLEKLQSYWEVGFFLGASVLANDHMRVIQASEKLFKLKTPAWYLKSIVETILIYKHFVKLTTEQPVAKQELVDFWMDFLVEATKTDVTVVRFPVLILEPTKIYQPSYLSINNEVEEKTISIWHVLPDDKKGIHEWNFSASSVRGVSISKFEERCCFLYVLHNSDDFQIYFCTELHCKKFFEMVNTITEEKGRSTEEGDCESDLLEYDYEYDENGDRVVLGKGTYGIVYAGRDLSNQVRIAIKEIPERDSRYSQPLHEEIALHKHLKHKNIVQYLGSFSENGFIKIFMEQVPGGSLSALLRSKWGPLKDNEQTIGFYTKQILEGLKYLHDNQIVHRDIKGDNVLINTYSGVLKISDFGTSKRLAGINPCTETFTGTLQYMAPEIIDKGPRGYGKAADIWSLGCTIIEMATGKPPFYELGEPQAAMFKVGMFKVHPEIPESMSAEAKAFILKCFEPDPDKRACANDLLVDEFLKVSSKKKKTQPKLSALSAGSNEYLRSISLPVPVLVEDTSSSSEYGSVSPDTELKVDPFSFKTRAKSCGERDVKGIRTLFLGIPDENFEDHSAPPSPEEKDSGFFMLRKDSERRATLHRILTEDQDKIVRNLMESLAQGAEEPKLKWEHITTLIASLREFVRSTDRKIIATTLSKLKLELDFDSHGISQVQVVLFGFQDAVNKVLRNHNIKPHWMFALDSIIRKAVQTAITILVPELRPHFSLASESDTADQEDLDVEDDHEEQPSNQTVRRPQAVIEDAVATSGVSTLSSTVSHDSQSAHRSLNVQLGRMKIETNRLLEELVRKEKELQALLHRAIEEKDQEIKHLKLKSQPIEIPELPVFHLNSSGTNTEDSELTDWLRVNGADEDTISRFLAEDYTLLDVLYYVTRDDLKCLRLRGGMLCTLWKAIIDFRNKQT
UniProt P11802, sequence (whole entry, looked up): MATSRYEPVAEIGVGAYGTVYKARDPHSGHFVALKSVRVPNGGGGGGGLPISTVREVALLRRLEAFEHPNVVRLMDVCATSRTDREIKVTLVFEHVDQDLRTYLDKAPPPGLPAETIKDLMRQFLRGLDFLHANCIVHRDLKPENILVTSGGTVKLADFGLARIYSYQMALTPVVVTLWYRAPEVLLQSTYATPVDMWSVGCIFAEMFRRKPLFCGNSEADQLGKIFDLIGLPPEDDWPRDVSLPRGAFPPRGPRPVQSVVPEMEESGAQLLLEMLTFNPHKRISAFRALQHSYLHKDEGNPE

Set 1 — observed: enzyme activity; mode: inhibitor; tested at: 0.5 µM; baseline: control; measurement: remaining activity
Target: Protein-tyrosine kinase 6 (PTK6, Homo sapiens, UniProt Q13882)
UniProt Q13882, sequence (whole entry, looked up): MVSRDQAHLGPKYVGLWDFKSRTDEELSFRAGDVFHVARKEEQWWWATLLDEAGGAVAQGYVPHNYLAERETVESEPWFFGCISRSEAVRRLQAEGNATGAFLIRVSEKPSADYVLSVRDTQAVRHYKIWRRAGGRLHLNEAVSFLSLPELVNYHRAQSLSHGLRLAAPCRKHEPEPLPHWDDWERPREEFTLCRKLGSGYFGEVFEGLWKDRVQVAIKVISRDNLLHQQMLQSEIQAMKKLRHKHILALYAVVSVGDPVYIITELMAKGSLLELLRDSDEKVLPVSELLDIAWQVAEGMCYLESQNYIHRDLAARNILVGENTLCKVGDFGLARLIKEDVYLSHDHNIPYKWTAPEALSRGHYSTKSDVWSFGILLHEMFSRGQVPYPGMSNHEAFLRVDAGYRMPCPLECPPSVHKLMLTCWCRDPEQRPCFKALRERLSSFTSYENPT
CN(C)S(=O)(=O)c1ccc2c(c1)/C(=C/c1cc3c([nH]1)CCCC3)C(=O)N2: 56.3%
COc1ccc2c(c1)c(C1=C(c3c[nH]c4ccccc34)C(=O)NC1=O)cn2CCCN(C)C: 92%
O=Nc1c(-c2c(O)[nH]c3cc(Br)ccc23)[nH]c2ccccc12: 89.3%
Cc1cc(Nc2cc(N3CCN(C)CC3)nc(Sc3ccc(NC(=O)C4CC4)cc3)n2)[nH]n1: 94.6%
Oc1cccc(-c2nc(N3CCOCC3)c3oc4ncccc4c3n2)c1: 80.8%
O=C1Nc2ccccc2/C1=C\c1c(Cl)[nH]c2ccccc12: 76.9%
O=C1NC(=O)c2c1c1c3ccccc3[nH]c1c1[nH]c3cc(Br)ccc3c21: 92.7%
CN1CCN(c2ccc3nc(-c4c(N)c5c(F)cccc5[nH]c4=O)[nH]c3c2)CC1: 96.4%
COc1cccc(-c2cc(=O)c3ccccc3o2)c1N: 92.6%
CCCCc1c(-c2ccc(OC)cc2)[nH]c2nccnc12: 30.4%

Set 2 — host: mouse; sample: microsomes or S9; tested at: 2 µM; time: 0.5 h; measurement: remaining compound
CCC(C)Nc1[nH]c2cc(C)cc(C)c2c(=O)c1C(C)=O (stereo not drawn): 0.126%
Cc1cc(-c2cnc(C)nc2-c2sccc2C)on1: > 100%
CCOc1cc(-c2nnc3[nH]c(=O)n(C)c(=O)c3n2)ccc1OC(C)C: 65.3%
O=c1c2c3c(nn2cnn1Cc1nc(-c2ccccc2F)no1)CCCC3: 7.86%
COc1c(-c2coc3cc4c(cc3c2=O)CC(OC(C)=O)C(C)(C)O4)ccc2c1C=CC(C)(C)O2 (stereo not drawn): 0.619%
COC(=O)c1ncn2c1C(=O)OC(COc1ccccc1)C2 (stereo not drawn): 51.4%
Cc1cc(CN2CCN(Cc3cc(C)c(O)c(C)c3)CC2)cc(C)c1O: 71.3%

Set 3 — tested at: 1 µM; measurement: remaining binding
Structure (SMILES): C[C@H](c1cccc(C#N)c1)n1cc(Cl)cc(C(N)=O)c1=N
Tyrosine-protein kinase ABL1, phosphorylated (ABL1, Homo sapiens, UniProt P00519, F317I); binding: 89%
PRKCD (Homo sapiens, UniProt Q05655); cell-free assay, competition with immobilised ligand: 91%
SIK3 (Homo sapiens, UniProt Q9Y2K2); cell-free assay, competition with immobilised ligand: 100%
Ribosomal protein S6 kinase alpha-1, N-terminal kinase domain (RPS6KA1, Homo sapiens, UniProt Q15418); cell-free assay, competition with immobilised ligand: 100%
Cyclin-dependent kinase 4, with cyclin D3 (CDK4, Homo sapiens, UniProt P11802); cell-free assay, competition with immobilised ligand: 96%
Ribosomal protein S6 kinase alpha-4, C-terminal kinase domain (RPS6KA4, Homo sapiens, UniProt O75676); cell-free assay, competition with immobilised ligand: 69%
TYRO3 (Homo sapiens, UniProt Q06418); cell-free assay, competition with immobilised ligand: 33%
MAP2K4 (Homo sapiens, UniProt P45985); cell-free assay, competition with immobilised ligand: 100%
PIK3CA (Homo sapiens, UniProt P42336, E542K); cell-free assay, competition with immobilised ligand: 77%
IGF1R (Homo sapiens, UniProt P08069); cell-free assay, competition with immobilised ligand: 100%
BLK (Homo sapiens, UniProt P51451); cell-free assay, competition with immobilised ligand: 78%
YES1 (Homo sapiens, UniProt P07947); cell-free assay, competition with immobilised ligand: 88%
Tyrosine-protein kinase ABL1, phosphorylated (ABL1, Homo sapiens, UniProt P00519, T315I); cell-free assay, competition with immobilised ligand: 96%
CAMKK2 (Homo sapiens, UniProt Q96RR4); cell-free assay, competition with immobilised ligand: 100%
ROS1 (Homo sapiens, UniProt P08922); cell-free assay, competition with immobilised ligand: 100%
STK32A (Homo sapiens, UniProt Q8WU08); cell-free assay, competition with immobilised ligand: 100%
MAP3K5 (Homo sapiens, UniProt Q99683); cell-free assay, competition with immobilised ligand: 85%
TEK (Homo sapiens, UniProt Q02763); cell-free assay, competition with immobilised ligand: 96%

Set 4 — organism: Sarcocystis neurona; observed: parasite activity; tested at: 10 µM; time: 96 h; measurement: activity class
C[C@@](Cc1ccc(O)c(O)c1)(NN)C(=O)O: inactive
NCc1ccc(S(N)(=O)=O)cc1: inactive
O=C1CCC(N2C(=O)c3ccccc3C2=O)C(=O)N1 (stereo not drawn): inactive
CCN1CCN(c2cc3c(cc2F)c(=O)c(C(=O)O)cn3C2CC2)CC1: inactive
C=C(CC)C(=O)c1ccc(OCC(=O)O)c(Cl)c1Cl: inactive
CN(C/C=C/C#CC(C)(C)C)Cc1cccc2ccccc12: inactive
CC(=O)OCC[N+](C)(C)C: inactive

Excerpt of the above (set 4):
C[C@@](Cc1ccc(O)c(O)c1)(NN)C(=O)O: inactive
NCc1ccc(S(N)(=O)=O)cc1: inactive
O=C1CCC(N2C(=O)c3ccccc3C2=O)C(=O)N1 (stereo not drawn): inactive
CCN1CCN(c2cc3c(cc2F)c(=O)c(C(=O)O)cn3C2CC2)CC1: inactive
